# Published values collected from several papers.
# Parts stem from different laboratories: compare values within a part only.

# Series 1 — method: competition protein-binding microarray; form: double-stranded DNA, one strand shown; medium: in vitro; tested at: 2 µM; with: Pho4 competitor, 0.05 µM; direction: higher = stronger binding
# Target: Centromere-binding protein 1, full length, His-tagged (CBF1, Saccharomyces cerevisiae, UniProt P17106, residues 1-351)
# Chain of UniProt P17106 (whole entry, looked up): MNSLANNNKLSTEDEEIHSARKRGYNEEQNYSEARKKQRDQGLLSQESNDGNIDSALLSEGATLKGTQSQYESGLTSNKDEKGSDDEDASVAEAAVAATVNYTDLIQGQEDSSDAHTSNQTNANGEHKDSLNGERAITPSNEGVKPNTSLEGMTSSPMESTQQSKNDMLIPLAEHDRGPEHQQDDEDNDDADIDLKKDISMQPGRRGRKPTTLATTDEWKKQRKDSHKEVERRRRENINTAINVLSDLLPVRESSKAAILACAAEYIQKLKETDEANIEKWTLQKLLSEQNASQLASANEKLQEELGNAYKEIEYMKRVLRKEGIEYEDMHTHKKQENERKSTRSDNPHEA
# Setting: whole 60-bp probe, lowest competitor level
Strand,fluorescence intensity [a.u.]
ACTATGAGAGCTTGGTGCGTGGCCGAAAGGAATAAAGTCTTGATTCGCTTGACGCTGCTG,64.3
GCCATCTGTCGGCCACACTTTGAGCAACAACTACAAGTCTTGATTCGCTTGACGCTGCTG,78.8
TGCAAGATCAAGTGCCGCGTGTCCTTATTGTTGTCCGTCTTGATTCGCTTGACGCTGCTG,101
CATACCCAACCTTTACACGTGTTTTAAGATATTTGTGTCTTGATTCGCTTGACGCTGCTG,1430
AAAGCGGTAATTTGTTTCGTGGGTGCAGATATCTATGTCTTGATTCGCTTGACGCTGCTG,78.1
AATCTGGTACCTTTCCATGTGGCACTTCAAAATTTTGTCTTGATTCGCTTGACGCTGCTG,70.2
AATTTGATAATTTGGCATGTGCGATCTCTTCGAAAAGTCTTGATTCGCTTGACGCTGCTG,120
CATTTATATTAAAATAATACCTACTGTTTCATACTTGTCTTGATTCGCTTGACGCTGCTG,89.3
TCTCCCAAAATTTCACACGTGATGGGATGATTTTGGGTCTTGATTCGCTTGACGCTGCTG,2980
CTTCTGTAAATTTGATGAGTGGGTGGACGCGCCCCGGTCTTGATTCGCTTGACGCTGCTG,68.8
CTCCCTGGGCGGCTGCACGTGCTGGCTGGCTCCTCCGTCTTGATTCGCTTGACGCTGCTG,956
TGCGCAACAACTTGTGCGGTGGGTGTATGTCTAGAAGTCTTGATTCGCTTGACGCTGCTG,76.6
CATGAAACTCGCTGTCAGCTGAAATTTCACCTCAGTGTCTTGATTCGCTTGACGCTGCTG,90.5
TCATTTTAGGCAGGGCCGGTACAGACCGCACCAATCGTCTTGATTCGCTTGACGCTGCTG,53.3
GTCTTGTCTCATTGTAAAGTGGGTGTCCCCACTTCAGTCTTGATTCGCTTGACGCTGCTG,79.7
CTGAACTCGCCGCCTCACCTGCCACTACGTCTTCCGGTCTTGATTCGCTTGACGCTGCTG,60.5
CGTTGGTCTTTTTGGTGAAACGGAGTACTGGCTTGCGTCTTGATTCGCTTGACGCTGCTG,62.2
AAGGACATACACAACCACAGACAAGGTCATATCGCGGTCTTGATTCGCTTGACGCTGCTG,64.2
CGGGGTTAAGTTTGCAAGGTGGGTGGCTTGCAGCAGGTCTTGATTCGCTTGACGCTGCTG,63.6
CCGCCTAGCAAACACCTCGTGCCAGTCATTACCGACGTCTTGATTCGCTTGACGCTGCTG,180
GCGGTCCCTTCTTCGGGCGTGATGGGCCGCTTTGGCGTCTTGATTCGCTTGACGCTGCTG,77
TCTACAAGAGGTACCCACGTATTGCTCCATTGAGAGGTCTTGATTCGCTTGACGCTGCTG,59.7
TCGAGAACTTAGGGTAGCGTGCCAGAAAATTTGCATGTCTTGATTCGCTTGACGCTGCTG,117
AAAGCGGTAATTTGAGTTGTGGGTGCAGATATCTATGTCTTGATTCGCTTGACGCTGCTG,90.6
GTAGCCCCACAATTTCACCTGCCATATAACATAAGGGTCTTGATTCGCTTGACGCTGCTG,75.4

# Series 2 — method: protein-binding microarray; form: hairpin DNA; medium: in vitro; tested at: not given; relative to: not given; direction: higher = stronger binding
# Target: Interferon regulatory factor 1, DNA-binding domain (IRF1, Homo sapiens, UniProt P10914, residues 1-114)
# Setting: whole hairpin DNA, median over replicate spots
# Target sequence (chain): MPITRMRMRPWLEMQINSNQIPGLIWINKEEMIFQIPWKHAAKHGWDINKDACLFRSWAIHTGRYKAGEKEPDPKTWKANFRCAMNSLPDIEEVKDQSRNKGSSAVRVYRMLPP
Strand,median fluorescence [a.u.]
GAGGCCCGAAAGCGAAACGCCTCCTGGCGTTTCGCTTTCGGGCCTCACAC (5mC at 7 13 33),847
GAGGCCCGAAAGTGAGACGCCTCCTGGCGTCTCACTTTCGGGCCTCACAC (5mC at 31),580
GAGGCCCGAACGTGAAACGCCTCCTGGCGTTTCACGTTCGGGCCTCACAC,526
GAGGCCCGAAAGTGGAACGCCTCCTGGCGTTCCACTTTCGGGCCTCACAC,569
GAGGCCCGAAAGCGAAACGCCTCCTGGCGTTTCGCTTTCGGGCCTCACAC (5mC at 7 33 39),880
GAGGCCCGAACGTGAAACGCCTCCTGGCGTTTCACGTTCGGGCCTCACAC (5mC at 11 35),490
GAGGCCCGAAAGCGCAACGCCTCCTGGCGTTGCGCTTTCGGGCCTCACAC,515
GAGGCCCGAATGCGAAACGCCTCCTGGCGTTTCGCATTCGGGCCTCACAC,638
GAGGCCCGAAACGGAAACGCCTCCTGGCGTTTCCGTTTCGGGCCTCACAC (5mC at 12),552
GAGGCCAGAAAGCGAAACGCCTCCTGGCGTTTCGCTTTCTGGCCTCACAC,1130
GAGGCCCGAAACTGAAACGCCTCCTGGCGTTTCAGTTTCGGGCCTCACAC (5mC at 12),1190
GAGGCCCGATAGTGAAACGCCTCCTGGCGTTTCACTATCGGGCCTCACAC,684
GAGGCCCGACAGTGAAACGCCTCCTGGCGTTTCACTGTCGGGCCTCACAC,544
GAGGCCCGAAAGCCAAACGCCTCCTGGCGTTTGGCTTTCGGGCCTCACAC (5mC at 14),522
GAGGCCCGAAAGCGACGCGCCTCCTGGCGCGTCGCTTTCGGGCCTCACAC (5mC at 16 30),536
GAGGCCCCGAAGTGAAACGCCTCCTGGCGTTTCACTTCGGGGCCTCACAC (5mC at 8 38),594
GAGGCCCGAAAGCGAACCGCCTCCTGGCGGTTCGCTTTCGGGCCTCACAC,513
GAGGCCCGAAAGCCGAACGCCTCCTGGCGTTCGGCTTTCGGGCCTCACAC,526
GAGGCCCCGAAGTGAAACGCCTCCTGGCGTTTCACTTCGGGGCCTCACAC (5mC at 8),624
GAGGCCCGAAGGTGAAACGCCTCCTGGCGTTTCACCTTCGGGCCTCACAC,536
GAGGCCCGAAAGCGAAAAGCCTCCTGGCTTTTCGCTTTCGGGCCTCACAC,830
GAGGCCCGCGAGCGAAACGCCTCCTGGCGTTTCGCTCGCGGGCCTCACAC (5mC at 9),558
GAGGCCGGAAAGTGAAACGCCTCCTGGCGTTTCACTTTCCGGCCTCACAC,1490
GAGGCCCGAAAGTGAACCGCCTCCTGGCGGTTCACTTTCGGGCCTCACAC,544

# Series 3 — method: RNA Bind-n-Seq; form: RNA; medium: in vitro; tested at: 365 nM; relative to: no-protein control; direction: higher = stronger binding
# Target: RNA binding protein fox-1 homolog 2, RRM domain, GST-SBP tag (RBFOX2, Homo sapiens, UniProt O43251-10, residues 100-194)
# Setting: natural RNA segment, single round, ends assumed
# Target sequence (chain): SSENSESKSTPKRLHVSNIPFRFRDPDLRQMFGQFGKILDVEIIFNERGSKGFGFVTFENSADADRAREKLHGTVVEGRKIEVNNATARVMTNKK
Strand,RBNS enrichment (R)
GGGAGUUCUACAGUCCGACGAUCCAAGCAUCUUCUUUCCCCCGCAAGUCCAUUUUAUUUCCUUCUUGUGCUGCUCUGGAAGAGAGGCAGUAGCAAAGAGAUGAGCUCCUGGAUGGCAUUUUCCAGGGCAGGAGUGGAAUUCUCGGGUGCCAA,5.52
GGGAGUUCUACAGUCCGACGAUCAUGUAUAUAGAAUCUCCAUAUUAAAGAAAUAUUCAUAAUCAGAAAGCUUGAAUAUUGUUUUUGCACCAGAGGAGAAGUGAGGAAAUUCGGAGCUAUACGUGUGUGCAGAGUGGAAUUCUCGGGUGCCAA,1.11
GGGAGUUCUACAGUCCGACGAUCUCGGAGUACUUGAAGAAGGCCCACGGGCGGCACGGAGUUCCUGAGCCCUUUCUGUAGUGGGGGAAAGGUGGCUGGACCUCUGUUGGCUGAGAAGAGCAUCCCUUCAGCUUUGGAAUUCUCGGGUGCCAA,1.54
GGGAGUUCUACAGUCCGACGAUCCUGAAAGGCUUUGGCCUUCCUCAGUGAGCCCUGGAGGGGUUGGCCUUCUCUCCUCCCUGCCUAGAUCAGUCCUUCUCCAAAAGGACCUGGGAGCUGGCAGCCUGGGCAGGUGGAAUUCUCGGGUGCCAA,0.315
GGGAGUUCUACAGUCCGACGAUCGUGGGUCUUGGGAUGGGCUGGAACAGGGUUCCUGCCUGAGUAGGUGGAACUGGCAACCUUGAAGGGUGAUUCCCCCCCACCCCCAGAGGAUCAGCUGCCUGUGGUUGGGAUGGAAUUCUCGGGUGCCAA,1.06
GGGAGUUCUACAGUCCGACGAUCCAAACUGUUGAUUACAGGUGCACUACAGGUAUGCUCUUUCAGUCUAUCUGGGGGCACAUAGGUGAGUCUGCUCCACUCAGAAGGAAGCAUACCUCUGCCCUCAUCCAGGGUGGAAUUCUCGGGUGCCAA,0.48
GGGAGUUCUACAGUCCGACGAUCAAGCCCCUCCUGCCAGUCCCUGUCCCCUUUCAGCCCACCAGUCCCUCUCUGCUGCCGGUGAUGGGAGGCCUUUCUAGACCUGGCUCUUUCUCUCCCGUCUCAGUGGCUUCUGGAAUUCUCGGGUGCCAA,0.432
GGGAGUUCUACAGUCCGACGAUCGCAUGAACCAGUGCGCCACAUGUGAUUUUGAAAUAAACACCUCAACUAGCACUAAUUUUAUUUGCAAUAUUUUUCUAUAAAACAAGUAGCUCUUGGAAAAGAGGUUUUCUUGGAAUUCUCGGGUGCCAA,0.405
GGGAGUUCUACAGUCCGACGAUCUGCAAGACAGUAAGCCGCGGAUGGACUCUCACUUGUGCUUUGGAACACUGGACUCCAAAGAGCAGGUGGAACAAACUCUGGCCUGAAGAUGAUGGCUAAUACUCAGGCAGUGGAAUUCUCGGGUGCCAA,0.531
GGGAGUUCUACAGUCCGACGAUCAAGGAGAAGGGCUGUGAUCUCCGGUCCCUUCCCCCAUCAUCCUUCCUUAGACUGAUGCUUUGACUGAAUCAUCACUAGCUAUGGCAUUAAAAGGCCUCUCUUCUCAUCUGUGGAAUUCUCGGGUGCCAA,0.619
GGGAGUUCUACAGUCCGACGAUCGAGCCAGACUUGUAUAUUCUAUUUUACAACUACAAAGGCCUCCUAAGUAUUGUACCUUCAGCGUGCAGUAUCUGUGAACUGAUUUCUCCAAGUGUGAGCUUUCUGAGCAAUGGAAUUCUCGGGUGCCAA,0.284
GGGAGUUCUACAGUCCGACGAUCAAUGCCCCAAACUUUCUCAUAAGCACCUAAAACCCAAAGGUGGCAGCUUGUGAAGAUUGGGGACACUCAUAUUGCCCUAAUUAAAAACUGUGAUUUUUAUCACAAGGGAGUGGAAUUCUCGGGUGCCAA,0.262

# Series 4 — method: protein binding microarray; form: double-stranded DNA, one strand shown; medium: in vitro; tested at: not given; relative to: not given; direction: higher = stronger binding
# Target: Histone acetyltransferase KAT6A, winged helix 1, GST fusion (KAT6A, Homo sapiens, UniProt Q92794, residues 1-85)
# Setting: 8-mer, flanks averaged, mean of 2 arrays, mostly near background
# Construct (chain): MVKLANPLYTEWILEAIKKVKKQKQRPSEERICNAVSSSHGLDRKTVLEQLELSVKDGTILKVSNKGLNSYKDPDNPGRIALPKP
Strand,E-score
CTGTTGTC,-0.0833
CCGACCCG,0.374
AAATAATT,-0.045
GAGTTTGC,0.0569
CTCAACAG,-0.0675
CCCATCCC,-0.0127
ATTGAAAT,-0.182
CATTGGGG,-0.258
ATTTGGAA,-0.232
ATCCTCGC,0.0914
AAAAGAAC,-0.106
CTCGGCGA,0.306
GGTCAACC,0.0977
ACGACGCA,0.0255
CGCCTACG,0.239
TACGTGAA,-0.00845
GTAGGCTA,-0.0398
ATCTCCAC,0.00984
GGGTACAA,-0.132

# For quick reference, copied from above (series 2):
Strand,median fluorescence [a.u.]
GAGGCCCGAAAGCGCAACGCCTCCTGGCGTTGCGCTTTCGGGCCTCACAC,515
GAGGCCCGAATGCGAAACGCCTCCTGGCGTTTCGCATTCGGGCCTCACAC,638
GAGGCCCGAAACGGAAACGCCTCCTGGCGTTTCCGTTTCGGGCCTCACAC (5mC at 12),552
GAGGCCAGAAAGCGAAACGCCTCCTGGCGTTTCGCTTTCTGGCCTCACAC,1130
GAGGCCCGAAACTGAAACGCCTCCTGGCGTTTCAGTTTCGGGCCTCACAC (5mC at 12),1190
GAGGCCCGATAGTGAAACGCCTCCTGGCGTTTCACTATCGGGCCTCACAC,684
GAGGCCCGACAGTGAAACGCCTCCTGGCGTTTCACTGTCGGGCCTCACAC,544
GAGGCCCGAAAGCCAAACGCCTCCTGGCGTTTGGCTTTCGGGCCTCACAC (5mC at 14),522
GAGGCCCGAAAGCGACGCGCCTCCTGGCGCGTCGCTTTCGGGCCTCACAC (5mC at 16 30),536
GAGGCCCCGAAGTGAAACGCCTCCTGGCGTTTCACTTCGGGGCCTCACAC (5mC at 8 38),594
GAGGCCCGAAAGCGAACCGCCTCCTGGCGGTTCGCTTTCGGGCCTCACAC,513
GAGGCCCGAAAGCCGAACGCCTCCTGGCGTTCGGCTTTCGGGCCTCACAC,526
